Measured values collected from several papers.
Protocols differ between the studies behind these lines. ± marks the error that the study gave.

For CC(C)[C@H](NC(=O)CNC(=O)[C@H](CCC(N)=O)NC(=O)[C@H](C)N)C(=O)O, “subjects with mild adverse events” read 66.7% (human; intravenous infusion, 90 mg/kg/h, 2 h infusion).
CCCCCCCCCCCCC(=O)O.O=C1CCCC2C3CCCN4CCCC(CN12)C34 (centres unmarked): “standard entropy of aggregation” 108 J/(mol·K) (electrical conductivity; water; 298.15 K).
CN(C)C(CNC(=O)Nc1cc(C(F)(F)F)ccc1N1CCOCC1)c1ccncc1 (centres unmarked) has a serum osmolarity of 365 mmol/L (mouse, serum; intraperitoneal, 360 mg/kg single dose).
COc1ccc(C)cc1NC(=O)OC1CC2CCCC(C1)N2Cc1ccc(CC[18F])cc1 (centres unmarked) has a tracer uptake of 5.68 %ID/g (mouse, bone; 2 h, tumour-bearing).
For CSCC[C@@H]1NC(=O)[C@@H]2CSSC[C@H](NC(=O)[C@H](CO)NC(=O)[C@H](C)N)C(=O)N[C@@H](CCCNC(=N)N)C(=O)N[C@@H]([C@@H](C)O)C(=O)N3CCC[C@H]3C(=O)N[C@@H](CCCCN)C(=O)N[C@@H](CC(=O)O)C(=O)N[C@H]3CSSC[C@H](NC(=O)[C@H](CCCCN)NC(=O)[C@H](CCCNC(=N)N)NC(=O)[C@H](CC(N)=O)NC1=O)C(=O)N[C@@H](CCCCN)C(=O)N[C@H]1CSSC[C@H](NC(=O)[C@@H]4CCCN4C(=O)[C@H](CC(=O)O)NC(=O)[C@H](C)NC3=O)C(=O)N[C@@H](C)C(=O)N[C@@H](CCCCN)C(=O)N[C@@H](CCC(=O)O)C(=O)N[C@@H]([C@@H](C)O)C(=O)NCC(=O)N[C@@H](CSSC[C@@H](C(N)=O)NC(=O)[C@H](CCCNC(=N)N)NC(=O)[C@H](CC(N)=O)NC1=O)C(=O)N1CCC[C@H]1C(=O)N[C@@H](Cc1ccc(O)cc1)C(=O)NCC(=O)N[C@@H](CCCCN)C(=O)N2, the total protein was 4.76 g/dL (DA rat, pristane-induced arthritis, serum; subcutaneous, 0.1 mg/kg once weekly, 21 days).
With Cc1cccc2c1NC(=O)C2=Cc1ccc(-c2cccc(C(=O)N3CCCN(C)CC3)c2)o1 (mixture of isomers) the solubility ratio was about 16 fold (SGF pH 1.2, SIF pH 6.8; relative to: SGF over SIF).
For COc1nc(CC=C(C)CC=CC(C)=CC(C)C(OC2OC(CO)C(O)C(O)C2O)C(C)=CCO)c(C)c(O)c1OC (centres unmarked), the concentration was 15.3 ± 7.31 ng/mL (C57BL/6 mice, acute kidney injury, kidney; 2 mg/kg, 30 min).
O=C(CN1CCN(c2cc3c(cc2F)c(=O)c(C(=O)O)cn3C2CC2)CC1)Nc1ccc(Cl)cc1 gave a C0 of 12000 ng/mL (mouse, plasma; intravenous, 3.75 mg/kg).
With CC[C@H](C)[C@H](NC(=O)[C@H]1CCC[C@@H]1NC(=O)[C@H](CCCCN)NC(=O)[C@H](CCCCN)NC(=O)C[C@H](C)NC(=O)[C@@H](NC(=O)[C@H](CCCCN)NC(=O)[C@H]1CCC[C@@H]1NC(=O)[C@H](CC(C)C)NC(=O)CN)C(C)C)C(=O)N[C@@H](CCCCN)C(=O)N[C@@H](CCCCN)CC(=O)N[C@@H](Cc1ccccc1)C(N)=O the retention time was 13.5 ± 0.02 min (RP-HPLC C18; hydrophobicity).
With N=C(N)NCc1ccc(C(=O)NCCCC[C@H](NC(=O)N[C@@H](CCC(=O)O)C(=O)O)C(=O)O)cc1[211At] the tissue uptake was 5.62 ± 1.17 %ID/g (SCID mouse, PC-3 xenografts, liver; 2 h).
For CN[C@](C)(C[18F])C(=O)O, the tracer uptake was 1.8 %ID/g (mouse, blood; 30 min, tumour-bearing).
For CC[C@H](C)CCCCC(=O)N[C@@H](CCN)C(=O)N[C@H](C(=O)N[C@@H](CCN)C(=O)N[C@H]1CCNC(=O)[C@H]([C@@H](C)O)NC(=O)[C@H](CCN)NC(=O)[C@H](CCN)NC(=O)[C@H](CC(C)C)NC(=O)[C@@H](Cc2ccccc2)NC(=O)[C@H](CCN)NC1=O)[C@@H](C)O, “urinary albumin excretion” read 284 µg/24 h (ELISA; male CD-1 mouse, urine; subcutaneous, 12.5 mg/kg, 4 doses every 8 h, 24 h urine collection, nephrotoxicity).
Under “uptake in small intestine”, C[S]1CC[S]2CC[P](CO)(CO)[99Tc+]12.[C-]#[O+].[C-]#[O+].[C-]#[O+] is recorded as 0.4 %ID (CF-1 mouse; intravenous, 24 h).
For CC(C)[C@@H]1NC(=O)[C@H](Cc2ccccc2)NC(=O)[C@H](Cc2ccc(O)cc2)NC(=O)CCSSC[C@@H](C(=O)N2CCC[C@H]2C(=O)N[C@H](CCCNC(=N)N)C(=O)NCC(N)=O)NC(=O)[C@H](CCC(N)=O)NC1=O, the total protein was 6.7 ± 0.6 g/dL (Wistar rat, blood; intravenous, 10 µg/kg single dose, 72 h).
With CCc1c2c(nc3ccc(OC4OC(C(=O)O)C(O)C(O)C4O)cc13)-c1cc3c(c(=O)n1C2)COC(=O)C3(O)CC (centres unmarked) the Tmax was 6 h (human patients, plasma; intravenous, 42 mg/m^2 of parent drug).
With CCN(Cc1ccccc1)C(=O)CCc1nc(CN2CCN(C(=O)Cc3ccc(OC)c(OC)c3)CC2)no1 the concentration was 24 ng/g (rat, liver; intravenous, 1 mg/kg, 15 min, single dose).
CC(C)C[C@@H](NC(=O)[C@@H](C)NC(=O)[C@@H](CC(C)C)NC(=O)[C@@H](CCCCN)NC(=O)[C@@H](CCCCN)NC(=O)[C@@H](CC(C)C)NC(=O)[C@@H](C)NC(=O)[C@@H](CC(C)C)NC(=O)[C@@H](CC(C)C)NC(=O)[C@@H](Cc1c[nH]c2ccccc12)NC(=O)[C@@H](CCCCN)NC(=O)[C@@H](CCCCN)NC(=O)[C@@H](CC(C)C)NC(=O)[C@@H](C)NC(=O)[C@@H](CC(C)C)NC(=O)[C@@H](CC(C)C)NC(=O)[C@@H](C)NC(=O)[C@@H](CC(C)C)NC(=O)[C@@H](CCCCN)NC(=O)[C@H](N)CCCCN)C(=O)N[C@H](CC(C)C)C(=O)N[C@H](C)C(=O)N[C@H](CC(C)C)C(=O)N[C@H](CCCCN)C(=O)N[C@H](CCCCN)C(N)=O gave an HC50 of 4.06 ± 1.3 µM (haemolysis; human erythrocytes; 30 min, pH 7.4, 37 °C).
COC(=O)C[C@](O)(CCCC(C)(C)OC(C)=O)C(=O)O[C@@H]1C(OC)=C[C@]23CCCN2CCc2cc4c(cc2[C@H]13)OCO4: tissue concentration “not detected” (CD1 mouse, pancreas; subcutaneous, 1 mg/kg, 24 h, below quantification limit 1.00 ng/mL).
NC(=O)[C@H](Cc1ccccc1)N[11C](=O)OCc1ccccc1 — result for “time to maximum uptake”: 10 min (dynamic PET; Wistar rat, male, spinal cord; intravenous, 13.1 MBq).
For CC(C)[C@H]1NC(=O)C[C@H]2/C=C/CCSSC[C@@H](NC1=O)C(=O)N[C@H](Cc1cccc3ccccc13)C(=O)NCC(=O)O2, the AUC(0-inf) was 0.0163 µg·h/mL (nude mouse, blood; intraperitoneal, 4 mg/kg).
For Cc1cccc(-c2cccc(C)n2)n1.[Cl-].[Cl-].[Ru+2].c1ccc(-c2ccccn2)nc1.c1ccc(-c2ccccn2)nc1, “total release from nanoassemblies” read 90% (phosphate buffer with NaCl; concentration not given, pH 7.4, 37 °C, dark, dialysis).
For CCCC[C@H](NC(=O)CN1CCC(NC(=O)CN2CCC(NC(=O)CN3CCN(CC(=O)O)CCN(CC(=O)O)CCN(CC(=O)O)CC3)CC2)CC1)C(=O)N[C@H]1CC(=O)NCCCC[C@@H](C(N)=O)NC(=O)[C@H](Cc2c[nH]c3ccccc23)NC(=O)[C@H](CCCNC(=N)N)NC(=O)[C@@H](Cc2ccccc2)NC(=O)[C@H](Cc2c[nH]cn2)NC1=O [gallium-68 labelled], “tumour to bone ratio” read 40.8 ± 5.2 (biodistribution; C57BL/6J mouse male tumour-bearing; 1 h post injection, unblocked; relative to: tumour over bone).
For O=c1cc(-c2ccccc2)oc2c(Br)c(O)c(O)c(O)c12, the AUC(0-t) was 1.06 µg·h/mL (C57BL/6 mouse, plasma; oral, 50 mg/kg, single dose).
CC(C)C[C@H](NC(=O)[C@H](CCCCN)NC(=O)[C@H](CCC(=O)O)NC(=O)[C@H](C)NC(=O)[C@@H](NC(=O)[C@H](CCCCN)NC(=O)[C@H](CC(=O)O)NC(=O)[C@H](Cc1ccc(O)cc1)NC(=O)[C@H](Cc1ccccc1)NC(=O)[C@H](C)NC(=O)[C@H](CCCCN)NC(=O)[C@H](CC(C)C)NC(=O)[C@H](Cc1c[nH]c2ccccc12)NC(=O)[C@@H](N)CC(=O)O)C(C)C)C(=O)N[C@@H](CCCCN)C(=O)N[C@@H](CCC(=O)O)C(=O)N[C@@H](C)C(=O)N[C@@H](Cc1ccccc1)C(=O)N1CCC[C@H]1C(=O)N[C@@H](CC(=O)O)C(=O)N[C@@H](Cc1c[nH]c2ccccc12)C(=O)N[C@@H](C)C(=O)N[C@@H](CCCCN)C(=O)N[C@@H](C)C(=O)N[C@@H](C)C(=O)N[C@@H](Cc1ccc(O)cc1)C(=O)N[C@@H](CC(=O)O)C(=O)N[C@@H](CCCCN)C(=O)N[C@@H](C)C(=O)N[C@@H](C)C(=O)N[C@@H](CCC(=O)O)C(=O)N[C@@H](CCCCN)C(=O)N[C@@H](C)C(=O)N[C@@H](CCCCN)C(=O)N[C@@H](CCC(=O)O)C(=O)N[C@@H](C)C(=O)N[C@@H](C)C(=O)O gave an AUC(0-last) of 1500 µg·h/mL (cynomolgus monkey male, plasma; intravenous infusion, 25 mg/kg, day 1, 30 min infusion).
With C/C=C/C=C/C/C=C/CCCCCCCc1cccc(O)c1O the AUC was 25.8 µg·h/mL (male Wistar rat, plasma; intravenous, 20 mg/kg).
Under “duration of detectable level”, CC(C)C[C@H](NC(=O)[C@H](Cc1ccccc1)NC(=O)CNC(=O)C/C=C(\F)[C@@H](N)Cc1ccc(O)cc1)C(=O)O is recorded as at most 30 min (BALB/c mice, plasma; oral, 400 mg/kg).
C[C@H](CC(=O)C[C@@H](C)[C@H]1C[C@H](O)[C@@]2(C)C3=C(C(=O)C[C@]12C)[C@@]1(C)CCC(=O)C(C)(C)[C@@H]1C[C@@H]3O)C(=O)O — result for pancreas histopathology: “no effect” (normal mouse, pancreas; 20 mg/kg).
CC(=CCC(O)C(C)=Cc1csc(C)n1)CC=CC(C)C(O)C(C)C(=O)C(C)(C)C(O)CC(=O)O (centres unmarked) has a half-life of 27 ± 9.93 h (human, plasma; intravenous infusion, 20.0 mg/m2 KOS-1584, 3 h infusion, cycle 1).
CC[C@H](C)C(=O)N1CCC(NC(=O)Nc2ccc(OC(F)(F)F)c(F)c2)CC1 — result for “subjects with injection site reaction”: 7.1% (healthy volunteers, both sexes; oral, 8 mg, fed state).

Excerpt of the above:
NC(=O)[C@H](Cc1ccccc1)N[11C](=O)OCc1ccccc1 — result for “time to maximum uptake”: 10 min (dynamic PET; Wistar rat, male, spinal cord; intravenous, 13.1 MBq).
For CC(C)[C@H]1NC(=O)C[C@H]2/C=C/CCSSC[C@@H](NC1=O)C(=O)N[C@H](Cc1cccc3ccccc13)C(=O)NCC(=O)O2, the AUC(0-inf) was 0.0163 µg·h/mL (nude mouse, blood; intraperitoneal, 4 mg/kg).
